{"data": "Measurements gathered from unrelated publications", "note": "Every numbered part comes from another study and shows a few of its results, in no order. Positions count from the first letter of the parent shown."}
{"data": "Series 1", "target": "Hepatocyte nuclear factor 3-alpha (Foxa1, Mus musculus, UniProt P35582, residues 1-468, full length assumed)", "method": "EMSA with sequencing", "form": "double-stranded DNA, one strand shown", "medium": "in vitro", "concentration": "10 and 20 nM", "notes": "whole designed probe, mean of two concentrations, ends assumed", "baseline": "negative control set to 0", "reading": "higher = stronger binding", "constant ends, left off below": "GTGAGCGGTGCCCATTGATGGGGAAC … TTTCACTGGGATCGTGGGGAC", "sequence of UniProt P35582 (whole entry, looked up)": "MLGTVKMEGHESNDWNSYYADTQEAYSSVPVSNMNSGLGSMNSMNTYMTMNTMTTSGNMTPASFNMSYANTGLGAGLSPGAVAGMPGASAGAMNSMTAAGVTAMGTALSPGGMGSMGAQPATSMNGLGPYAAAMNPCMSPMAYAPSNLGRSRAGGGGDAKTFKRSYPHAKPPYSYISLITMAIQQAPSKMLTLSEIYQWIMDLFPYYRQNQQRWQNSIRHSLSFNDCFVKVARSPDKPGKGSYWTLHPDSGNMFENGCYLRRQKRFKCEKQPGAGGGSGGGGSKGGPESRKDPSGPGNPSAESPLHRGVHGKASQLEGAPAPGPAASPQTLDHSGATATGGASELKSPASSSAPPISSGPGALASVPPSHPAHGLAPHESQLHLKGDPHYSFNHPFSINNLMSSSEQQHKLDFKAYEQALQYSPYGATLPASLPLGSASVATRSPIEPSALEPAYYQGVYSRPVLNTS"}
{"Strand": "AGCAGGAAACTCTCCCACCCCTTTTTCCTCTCTCTTTCAAAGCAATTTGTTTCAGTATTTTAGCATACAAAAAAATAGAACCATTTTCTTCAATGTAAACAGAGATCTGCAGGGAAATAAGAGCGTTAAAAAAGAATTAGCATTTGTTTGGTGGTGAAGCTGCTTTTGTTTGTATCAGAAAGCTCTGCATGTT", "normalised bound fraction [ratio]": 0.326}
{"Strand": "TTGGCTTAGTTAAGCCAGGAGCTCCTAAAGTTAATGAAATGTGCCTAATTAAATGGTGGCAGTTGGACTTTGATATTTTGGTTGATGAATTATTTGTTTACTTTGATTTGCTATGGTTCACATAATTTCAAAGGTAGCATCGTGTCTGTCATGGAAAATTTCTAAAGAAGGATTTGCCAATAGAATTACAAAT", "normalised bound fraction [ratio]": 0.468}
{"Strand": "TTTGCAGAGCTTTTCCAGTGAGAGTATCCTAGATACTTGGGGTCATGGCATTACCTTTACATTAGGGCGACAGCAGCTGCAATCTAAACAAAGTAAACAAGTCTGCTAGTGCTTGCCTCTTAAACTAGCCAGGTAGTAGGGTATTTGAGAGTTTAGATAGCCATGCATGTTATATAGGCAGGAAGCAGACAAA", "normalised bound fraction [ratio]": 0.463}
{"Strand": "ATCTTCCCCCTCTTCCTTGCCCCACCAGCTCACCTTCCCGGGTTATTTGCAGATAGGAAAATAAATAAAGCCGGCATTCGTTAACGCAGTTCTGGCGCAAACTGCTGTTTGCTCTGGATCTAACATGGTCCTTTGGCGACGCCAGGCTCCGGGAGAGCAAAGCACCGTGTCAGGGCCATGATCCGGGGTGGCC", "normalised bound fraction [ratio]": 0.347}
{"Strand": "CTATTTGTGTATTTTTTCATGTGCTGTATCATATCCTGTGATCACTTTCCCAGATGGTTCCTCGTGTGTTCATACTTACATTTCCCCACTGATGTTTACATTGTCTTTCTATTTTTGTTTTCCTTACTTAAACAAAACAAAACAAAAGAATGCTTATTCTAATTTCATTTTTTCCTTCGATGTCTTATAAAAT", "normalised bound fraction [ratio]": 0.453}
{"data": "Series 2", "target": "CCNB3, cyclin fold, Cln2 fusion (human)", "method": "yeast growth competition, sequencing", "medium": "yeast", "notes": "strong parent motif", "baseline": "not given", "reading": "higher = stronger binding", "starting sequence": "viral docking peptide; YKVKRRLVFGADD"}
{"Substitution": "R5A", "normalised enrichment score": 0.319}
{"Substitution": "F9V", "normalised enrichment score": 0.0298}
{"Substitution": "V3A", "normalised enrichment score": 1.03}
{"Substitution": "K4G", "normalised enrichment score": 0.317}
{"Substitution": "A11P", "normalised enrichment score": 2.64}
{"data": "Series 3", "target": "UBE2A UBC core domain (UniProt P49459)", "method": "yeast two-hybrid", "medium": "yeast", "notes": "mostly zero background", "baseline": "not given", "reading": "higher = stronger interaction", "B1": "TRIM8 RING domain (UniProt Q9BZR9); chain WKNCFEEELICPICLHVFVEPVQLPCKHNFCRGCIGEAWAKDSGLVRCPECNQAYNQKPGLE", "sequence of UniProt P49459 (whole entry, looked up)": "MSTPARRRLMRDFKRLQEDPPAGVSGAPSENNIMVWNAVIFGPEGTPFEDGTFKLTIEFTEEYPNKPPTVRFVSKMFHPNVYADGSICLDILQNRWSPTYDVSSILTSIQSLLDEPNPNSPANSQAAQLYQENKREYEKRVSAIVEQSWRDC"}
{"Sequence": "QHHELTSLFECPVCFDYVLPPILQCQAGHLVCNQCRQKLSCCPTCRGALTPSIRNL (SIAH2 RING domain (UniProt O43255))", "lacZ reporter activity": 0}
{"Sequence": "B1 (TRIM8 RING domain)", "lacZ reporter activity": 0}
{"Sequence": "FASPPDSNFVCSVCHGVLKRPARLPCSHIFCKKCILRWLARQKTCPCCRKEVKRKKVVH (RNF151 RING domain (UniProt Q2KHN1))", "lacZ reporter activity": 0}
{"Sequence": "RLTMMWEEVTCPICLDPFVEPVSIECGHSFCQECISQVGKGGGSVCPVCRQRFLLKNLRP (TRIM21 RING domain (UniProt P19474))", "lacZ reporter activity": 0}
{"Sequence": "KTLSRFGIQPCSICLGDAKDPVCLPCDHVHCLRCLRAWFASEQMICPYCLTALPDEFSPA (RNF213 RING domain (UniProt Q63HN8))", "lacZ reporter activity": 0}
{"data": "Series 4", "target": "TAR DNA-binding protein 43, full length, His tag (TARDBP, Homo sapiens, UniProt Q13148, residues 1-414)", "method": "RNA Bind-n-Seq", "form": "RNA", "medium": "in vitro", "concentration": "20 nM", "notes": "6-mer, flanks averaged, single round", "with": "150 mM LiCl", "baseline": "input library", "reading": "higher = stronger binding"}
{"Strand": "AAACAG", "6-mer enrichment (R)": 0.809}
{"Strand": "CUCUCC", "6-mer enrichment (R)": 0.975}
{"Strand": "GCUUAA", "6-mer enrichment (R)": 0.895}
{"Strand": "AUCAAC", "6-mer enrichment (R)": 0.796}
{"Strand": "UAGUUG", "6-mer enrichment (R)": 1.1}
{"Strand": "AGAGUU", "6-mer enrichment (R)": 0.943}
{"Strand": "AAACAC", "6-mer enrichment (R)": 0.802}
{"Strand": "UGUGUU", "6-mer enrichment (R)": 1.95}
{"note": "Repeated from above (series 2):"}
{"Substitution": "F9V", "normalised enrichment score": 0.0298}
{"Substitution": "V3A", "normalised enrichment score": 1.03}
{"Substitution": "K4G", "normalised enrichment score": 0.317}
{"Substitution": "A11P", "normalised enrichment score": 2.64}
